Results of several laboratories.
Parts stem from different laboratories: compare values within a part only.

Series 1
Target: PABPC1L2, full length, GST fusion (mouse, UniProt A0ABA7IW68)
Technique: RNAcompete
Form: RNA
Medium: in vitro
Tested at: 20 nM
Notes: 7-mer, probes averaged, single round
Baseline: mean of 7-mers
Direction: higher = stronger binding
Residues (chain): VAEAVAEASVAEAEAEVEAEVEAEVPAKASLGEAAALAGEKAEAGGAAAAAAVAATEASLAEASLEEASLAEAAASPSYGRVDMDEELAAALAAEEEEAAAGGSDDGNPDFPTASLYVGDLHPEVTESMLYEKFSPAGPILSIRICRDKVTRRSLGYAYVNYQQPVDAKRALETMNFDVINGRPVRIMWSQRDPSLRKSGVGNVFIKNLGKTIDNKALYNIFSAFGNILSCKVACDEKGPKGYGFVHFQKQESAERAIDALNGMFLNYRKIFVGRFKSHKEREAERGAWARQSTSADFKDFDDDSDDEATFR
Strand	7-mer Z-score
CUUUGUG	-0.452
CUUUCUC	-0.434
AUGAGCC	-0.195
UUAUCUU	-0.157
CAAGUCA	-0.18
GAGCAGG	0.0623
UGGGGAC	0.305
AUCAUAG	0.0678

Series 2
Target: Replicase polyprotein 1ab, nsp13 helicase (rep, Severe acute respiratory syndrome coronavirus 2, UniProt P0DTD1)
Action: inhibitor
Tested at: 20 µM
SMILES	inhibition
CC(C)=CCC[C@]1(C)C=Cc2c(O)c3c(c(CC=C(C)C)c2O1)O[C@]12C(=C[C@@H]4C[C@H]1C(C)(C)O[C@@]2(C/C=C(/C)C(=O)O)C4=O)C3=O	21.6%
c1ccc2nc(C3=NCCN3)ccc2c1	8.57%
CC(ONC(=O)c1cc(C(F)(F)F)cc(C(F)(F)F)c1)C(=O)Nc1ccc(Cl)cc1 (centres unmarked)	-2.83%
Cc1ccccc1C(C(=O)NC1CCCCC1)N(C(=O)Cn1ccnc1C)c1cccc(F)c1 (centres unmarked)	2.48%
O=c1[nH]c(=O)n([C@H]2C[C@H](O)[C@@H](CO)O2)cc1I	3.66%
c1ccc2c(CC3=NCCN3)cccc2c1	2.27%
Cc1ncc(C[n+]2csc(CCO)c2C)c(N)n1	-0.27%
O=C(NCC1CCCCN1)c1cc(OCC(F)(F)F)ccc1OCC(F)(F)F (centres unmarked)	2.82%
O=c1cc(N2CCOCC2)oc2c1ccc1ccccc12	-2.81%
O=C(c1cn(Cc2cncn2Cc2ccc(Br)cc2)cc1-c1cccc2ccccc12)N1CCOCC1	6.99%
Cn1c(=O)cc(N2CCC[C@@H](N)C2)n(Cc2ccccc2C#N)c1=O	-0.08%
N#C/C(=C(/N)Sc1ccc(N)cc1)c1ccccc1C(F)(F)F	4.18%
C[C@@H](O[C@H]1OCCN(Cc2nn(P(=O)(O)O)c(=O)[nH]2)[C@H]1c1ccc(F)cc1)c1cc(C(F)(F)F)cc(C(F)(F)F)c1	8.36%
NC[C@@](O)(c1ccc(Cl)cc1)c1ccc(-c2cn[nH]c2)cc1	4.74%
C[C@]12CC[C@H](O)C[C@H]1CC[C@@H]1[C@@H]2CC[C@]2(C)[C@@H](C3=CC(=O)OC3)CC[C@]12O	0.6%
O=C1[C@H](CC[C@H](O)c2ccc(F)cc2)[C@@H](c2ccc(O)cc2)N1c1ccc(F)cc1	7.75%
C[C@H](NC(=O)CNC(=O)c1cccc(Cl)c1)c1ccccc1	6.01%
N#Cc1c(N)nc(SCC(N)=O)c(C#N)c1-c1ccc(OCC2CC2)cc1	-0.06%
O=C(O)c1ccc2c(c1)nc(Nc1cccc(Cl)c1)c1ccncc12	9.62%
COC(=O)N(C)c1c(N)nc(-c2nn(Cc3ccccc3F)c3ncccc23)nc1N	2.65%
Nc1nc2n[nH]nc2c(=O)[nH]1	23.6%
CC(=O)[C@H]1CC[C@H]2[C@@H]3CCC4=CC(=O)CC[C@]4(C)[C@H]3CC[C@]12C	-1.42%

Series 3
Target: Protein C-ets-1 (ETS1, Homo sapiens, UniProt P14921, residues 1-441, K379A, full length assumed)
Technique: protein-binding microarray
Form: double-stranded DNA, one strand shown
Medium: in vitro
Tested at: not given
Notes: k-mer, scored over probes, only values ≥0.25
Direction: higher = stronger binding
Residues (chain): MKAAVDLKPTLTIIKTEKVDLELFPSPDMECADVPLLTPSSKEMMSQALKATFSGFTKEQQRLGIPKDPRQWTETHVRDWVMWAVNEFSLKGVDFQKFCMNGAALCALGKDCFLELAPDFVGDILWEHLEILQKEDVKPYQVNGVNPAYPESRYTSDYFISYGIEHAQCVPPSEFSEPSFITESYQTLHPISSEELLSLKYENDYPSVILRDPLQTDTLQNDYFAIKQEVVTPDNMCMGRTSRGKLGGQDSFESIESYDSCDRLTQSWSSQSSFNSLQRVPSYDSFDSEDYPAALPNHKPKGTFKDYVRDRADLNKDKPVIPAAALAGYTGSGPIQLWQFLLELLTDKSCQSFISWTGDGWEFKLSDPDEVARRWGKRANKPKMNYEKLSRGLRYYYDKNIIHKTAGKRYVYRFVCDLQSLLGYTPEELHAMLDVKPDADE
Strand	E-score
ATTGTTAC	0.279
CCGGTTGA	0.337
AAACCGGG	0.327
CGTCCGGA	0.289
TGTGCTAA	0.273

Series 4
Cell line: HEK-293T
Read-out: pseudovirus infection
Technique: FDA-approved drug library screen
Organism: VSV pseudotyped with SARS-CoV-2 spike
Tested at: 10 µM
Time: 16 h
Baseline: vehicle-treated
SMILES	GFP-positive cells
Cc1cc(C(C)(C)C)c(O)c(C)c1CC1=NCCN1	92.3%
CCCCc1oc2ccc(NS(C)(=O)=O)cc2c1C(=O)c1ccc(OCCCN(CCCC)CCCC)cc1	10.9%
CN1C[C@H](C(=O)N[C@]2(C)O[C@@]3(O)[C@@H]4CCCN4C(=O)[C@H](Cc4ccccc4)N3C2=O)C[C@@H]2c3cccc4[nH]cc(c34)C[C@H]21	99%
CC1=C(C/C=C(\C)CCC[C@H](C)CCC[C@H](C)CCCC(C)C)C(=O)c2ccccc2C1=O	82.6%

Series 5
Target: RNA binding protein fox-1 homolog 2, RRM domain, GST-SBP tag (RBFOX2, Homo sapiens, UniProt O43251-10, residues 100-194)
Technique: RNA Bind-n-Seq
Form: RNA
Medium: in vitro
Tested at: 365 nM
Notes: natural RNA segment, single round, ends assumed
Baseline: no-protein control
Direction: higher = stronger binding
Constant ends, left off below: GGGAGUUCUACAGUCCGACGAUC … UGGAAUUCUCGGGUGCCAA
Construct (chain): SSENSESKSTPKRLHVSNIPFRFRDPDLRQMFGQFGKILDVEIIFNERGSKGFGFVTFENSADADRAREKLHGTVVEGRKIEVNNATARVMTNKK
Strand	RBNS enrichment (R)
UAUUUCCUAUCUAACCUUCAAAUAGCUUCCAAUUCUUUUUUUCUUGGACUGGCUUCAUUCUGAAUUUGUGCUAAAAUAAUCUUUCAUAAAGAGACCUCAGUUUAUAGCGU	0.602
ACACACUGGGCCAGAGAGGCCUGCCUUCUGCCUGCUCUCCUGCACUGACCCUUUGGAGGGGGUCUCUGUGUGCUGAAGCUAACUCAAGAUGGAAAGUGAAACCACAUGUG	0.428
GGUCACUCUUUCCCUCUUACUGUAGUUUCCUAGAUUUAUCUGAGGAAAAGUGAGAUGUCUUCACGCUAAGGCUCCAGUGUUCUGUCAGAGACCUGAAUGCUCUAUUUGCC	0.541
CAAAAUCCCUCAAGAUAACCCUUUGCUAGGAAGUGGUGAAUCUAAAAGCUGAAGCACGUUUCAUAUGAAGCCAGUUCAGUGGCCUUGUUUAUUUCAAGACAAUGCCUUAU	0.367
UUACCUGCACCGCUGUUCUUUGAGCCUCGCUCCACGUAGUGUUCUGUGUUUAUCCACCGGUAGCGAUGCCCACCUUCCAGCCGGGAGAAAUAAAUGGUUUAUAAGAGACC	0.353
UUGGUGGAUAUUUGGGGAAAGCAACACAAAUCUUAAAACUCACCCGUGAAGUGUGAGAAAACAAGGAGGGGAACAAAUGGGACUUACCAAGCAAGGUCAUUGUUGUGAAA	0.673
CUGCCCCAGUCAAAAUCAUCUUGUGCCAAAAAAUUAGAGGUUUGAUUCAUCGUGUCCCUGUUUGAACGUUUAGCACAAAAGUCUUAAUAGCACAACACAAAUUCCAUCCA	0.708
UAACUGCCACAGUGCUAUUUGUUUACCAUCAAAUUGUAUUGGUGUUUCCAGGGCUUGUUGGUACAAAUCAAAGCCAAGACCAAUUAAAAGAAAUGUAUUUUUAUCUUCGG	0.309

Series 6
Target: Replicase polyprotein 1ab, main protease (rep, Severe acute respiratory syndrome coronavirus 2, UniProt P0DTD1)
Read-out: enzyme activity
Action: inhibitor
Tested at: 20 µM
Notes: hit confirmation, no DTT
SMILES	inhibition
COc1ccc2nc(S)[nH]c2c1	81.4%
C[n+]1c2cc(N)ccc2cc2ccc(N)cc21.Nc1ccc2cc3ccc(N)cc3nc2c1	68%
CNC(=O)ON(C(C)=O)C(=O)NC	94.7%

A few entries again (series 2):
SMILES	inhibition
CC(=O)[C@H]1CC[C@H]2[C@@H]3CCC4=CC(=O)CC[C@]4(C)[C@H]3CC[C@]12C	-1.42%
N#C/C(=C(/N)Sc1ccc(N)cc1)c1ccccc1C(F)(F)F	4.18%
O=C(O)c1ccc2c(c1)nc(Nc1cccc(Cl)c1)c1ccncc12	9.62%
O=C(NCC1CCCCN1)c1cc(OCC(F)(F)F)ccc1OCC(F)(F)F (centres unmarked)	2.82%
C[C@H](NC(=O)CNC(=O)c1cccc(Cl)c1)c1ccccc1	6.01%
